Published values pooled from the literature.
Each numbered part is a random draw from the data of one study; scales do not carry over between parts. Substitutions count along the parent as printed.

Study 1
Target: Histone acetyltransferase KAT6A, winged helix 2, GST fusion (KAT6A, Homo sapiens, UniProt Q92794, residues 85-181)
Technique: protein binding microarray
Molecule type: double-stranded DNA, one strand shown
Medium: in vitro
Tested at: not given
Notes: 8-mer, flanks averaged, mean of 2 arrays, mostly near background
Relative to: not given
Direction: higher = stronger binding
Target sequence (chain): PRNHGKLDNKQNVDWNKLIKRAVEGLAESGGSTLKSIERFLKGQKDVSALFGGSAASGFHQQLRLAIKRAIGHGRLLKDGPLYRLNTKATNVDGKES
Strand | E-score
CTATCAGC | 0.1
GAGTTTCC | 0.0385
CCCCGATA | -0.0158
GCGACTCC | -0.094
AAGCACTT | -0.119
AAGGGTAC | -0.187
GCTCAACC | 0.0164
GGCGTTAC | 0.0453
AAGAACGC | 0.0973
GCGGTAGA | -0.0967
ACCGTAAT | -0.15
CGGTTCGA | 0.242
AACGATTC | 0.0455
AGACCTAT | 0.0157
AGGCACAA | 0.0698
CCCGTACA | -0.323

Study 2
Target: Phosphate system positive regulatory protein PHO4, full length, GST-tagged (PHO4, Saccharomyces cerevisiae, UniProt P07270, residues 1-312)
Technique: competition protein-binding microarray
Molecule type: double-stranded DNA, one strand shown
Medium: in vitro
Tested at: 2 µM
Notes: whole 60-bp probe, lowest competitor level
With: Cbf1 competitor, 0.05 µM
Direction: higher = stronger binding
Residues (chain): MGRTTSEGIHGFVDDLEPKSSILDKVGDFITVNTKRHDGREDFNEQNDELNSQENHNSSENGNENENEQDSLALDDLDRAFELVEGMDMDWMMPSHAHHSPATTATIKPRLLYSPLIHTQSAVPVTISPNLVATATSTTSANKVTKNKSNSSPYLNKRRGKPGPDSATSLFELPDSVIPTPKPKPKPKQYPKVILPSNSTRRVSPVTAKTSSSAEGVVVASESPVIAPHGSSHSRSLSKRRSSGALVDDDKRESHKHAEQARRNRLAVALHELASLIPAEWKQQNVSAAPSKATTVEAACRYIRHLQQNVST
Strand | fluorescence intensity [a.u.]
TACTTTTGATGACTGTTTCTCAACTCCATGTCATTCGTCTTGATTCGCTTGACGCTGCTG | 3450
ATACAACAAAGCGACCGCGTGACGGTTAGACAAGACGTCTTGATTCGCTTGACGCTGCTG | 9850
CCGATTGATAACCATCACGCAAAAAAAAAAGATGATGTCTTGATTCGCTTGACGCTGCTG | 5130
ATTGTTGATGCTCTTGGCATGACAGAGGCGACGCCGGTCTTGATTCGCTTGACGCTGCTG | 4090
TGCGCAACAACTTGCTCTGTGGGTGTATGTCTAGAAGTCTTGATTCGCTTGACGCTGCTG | 4490
CGTCCTAGCGATTGAGAAGTGGGTGCCATGAGGAAGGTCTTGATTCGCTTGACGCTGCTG | 5910
CTTCCTGTGGATTTTCACGGGCCGTCCCAAGCGCAAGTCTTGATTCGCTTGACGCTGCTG | 3910
TTTCATTCAGACCAACACGTGGTGAATTCACATAGTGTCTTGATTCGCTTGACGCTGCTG | 17100
TGTTCATTCATTATTCAATGCAAAGTATAAAGACAGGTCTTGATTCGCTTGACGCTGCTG | 4120
CGGTGGTATAGAAATGACGTGCCAGGCATAAGGTGAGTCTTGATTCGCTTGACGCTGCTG | 6430
CTAACGAAGGTTTGGTCTGTGGGTGACAAGCCAAGTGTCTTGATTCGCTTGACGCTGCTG | 3520
TTCGATGATGCTTGTCACGTGAACGAAGACTTCCAGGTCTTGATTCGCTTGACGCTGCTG | 12300
GTCTTGTCTCATTTTCACGTGGAATTCCCCACTTCAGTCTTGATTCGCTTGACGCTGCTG | 8920
AAAAACATTTCCTGTCACATGTTAGTAAAACAGAAAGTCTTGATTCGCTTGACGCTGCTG | 11200
GACTTGAAAGAACAGCACGTTTTTGTCATCGCTTACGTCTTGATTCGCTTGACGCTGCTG | 14400
CTTCTGTAAATTTGACACGTGGGTGGACGCGCCCCGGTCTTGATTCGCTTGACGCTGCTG | 20500
CTTTCCCGATCTTGTCTTGTGGGTGTAGCACATTTGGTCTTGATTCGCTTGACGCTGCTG | 5340
AGTTCCTGCAGGGCCCACGTGGGGATACGGAGGCCCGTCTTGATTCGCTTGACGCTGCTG | 16400
TACACTTCGTATTTGCACGATATGTTTCCCTTTTAAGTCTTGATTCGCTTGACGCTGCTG | 6360

Study 3
Target: Max-binding protein MNT, bHLH-zipper, MAX partner unstated (MNT, Homo sapiens, UniProt Q99583, residues 220-300)
Technique: protein-binding microarray
Molecule type: double-stranded DNA, one strand shown
Medium: in vitro
Tested at: not given
Notes: k-mer, scored over probes, only values ≥0.25
Direction: higher = stronger binding
Construct (chain): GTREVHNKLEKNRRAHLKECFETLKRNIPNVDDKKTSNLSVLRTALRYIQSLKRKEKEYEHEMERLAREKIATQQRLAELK
Strand | E-score
ACACCCCA | 0.305
ACACGCTG | 0.403
CACGATGC | 0.36
GAACGTGA | 0.272
GCACACGC | 0.403
CCATGCGG | 0.449
ATGTGCGC | 0.379
CGTGCGGC | 0.372
CGGCACGC | 0.356
GTGCATGA | 0.345
CACCTGAC | 0.278
AGTACCAC | 0.309
ACGAGGTA | 0.317
CACGTTAC | 0.421
CATGTTCG | 0.266
ACATGACG | 0.276
CTGCGCCA | 0.256
CAACGTGG | 0.461
ACGTGGCC | 0.42
CATGGCGA | 0.266
ACATGTTG | 0.378
CAGACACG | 0.366
AACCACGT | 0.46

Study 4
Target: RNA binding protein fox-1 homolog 2, RRM domain, GST-SBP tag (RBFOX2, Homo sapiens, UniProt O43251-10, residues 100-194)
Technique: RNA Bind-n-Seq
Molecule type: RNA
Medium: in vitro
Tested at: 365 nM
Notes: natural RNA segment, single round, ends assumed
Relative to: no-protein control
Direction: higher = stronger binding
Target sequence (chain): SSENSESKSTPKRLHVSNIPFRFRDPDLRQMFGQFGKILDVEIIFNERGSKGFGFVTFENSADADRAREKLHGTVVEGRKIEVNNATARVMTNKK
Strand | RBNS enrichment (R)
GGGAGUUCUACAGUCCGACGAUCACUCUGUCUCCUUGGCUGGAGUGUGGUGGCACAGUCUCAGCUCACUGCAACCUCUGCCUCCCAGUUCAAGCAAUUCUUCUGCCUCAGCCUCCCAAGUAGCUGGGAUUACAUGGAAUUCUCGGGUGCCAA | 0.328
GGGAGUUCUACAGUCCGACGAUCCUUUCUUGGUUUGGUCACCCCGAUCCCCCGGUCUUCUGCUGUAUCUAGAACAGUGACUAUAAAUGAUGUAUGGGAAUAGUGUUUCCAUAUGAUCUGUUGUCUGGAGUAUAUGGAAUUCUCGGGUGCCAA | 0.607
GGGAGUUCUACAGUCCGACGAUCAAGCAUCUGAAGACUGGGUUUUUUUGUUGUUGUUGUUCCCCUUACAGACAAAAUGAAGACUAUCAUGUGCAAUCUUUUACAGUGGGGUUGAUGAUACAUUUGGAAGGAUUUGGAAUUCUCGGGUGCCAA | 0.521
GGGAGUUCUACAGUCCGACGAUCAAGCAGGACAGUGUGCGUGCACGAGCUCCGAGCCCAGCACAGACAUGCCUGGAACCCCCGCCGCCUGCUGCUCCCUCCUAGGGAACCCAUUUCCGGGGAACGCCGUGACUUGGAAUUCUCGGGUGCCAA | 0.361
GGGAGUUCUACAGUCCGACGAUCCUGGAGAAGGUGGGCACUGGAUUAGUUAACAGACAACACGUUACUAGCAGUCACUUGAUCUCCGUGGCUUUGGUUUAAAAGACACACUUGUCCACAUAGGUUUAGAGAUAUGGAAUUCUCGGGUGCCAA | 0.232
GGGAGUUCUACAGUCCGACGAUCCCUCAGUGGCCACAUCAUGCCCACUCCCACUCCAUCCUGUCCCCAAGGACUCACAUACAGUGCCUGGAGAAAGCCAAAGACCUUUAUUUCUUCCUGCCUCCCCGUGGGAAUGGAAUUCUCGGGUGCCAA | 0.385
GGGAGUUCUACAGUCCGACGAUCCAAUCCCCAGCACUUACUUCUCACUGCAAAGGAGCAAAACAACAAAAACAGCAAGACCAGAAGUGCCCAGCCCCUUGCUGACAGAUUGCUUCGUGUGUGUCCCCACACAAUGGAAUUCUCGGGUGCCAA | 0.35
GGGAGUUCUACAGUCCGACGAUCUUCCGAGCUGGCGGACUGCCCAGGGGCCAUCAGAGGAUGGUGGUGCUGCUGCUGAUCCGGGGACCGCUGUCUUCCCUCCCAUACGCCUUUCAUCCCUCCUUCUAGGGCCUUGGAAUUCUCGGGUGCCAA | 0.468

Study 5
Target: CCNB1, cyclin fold, Cln2 fusion (human)
Technique: yeast growth competition, sequencing
Medium: yeast
Notes: strong parent motif
Relative to: not given
Direction: higher = stronger binding
Parent: PKN2 docking peptide (human); VSAVRKLDFSDTM; partner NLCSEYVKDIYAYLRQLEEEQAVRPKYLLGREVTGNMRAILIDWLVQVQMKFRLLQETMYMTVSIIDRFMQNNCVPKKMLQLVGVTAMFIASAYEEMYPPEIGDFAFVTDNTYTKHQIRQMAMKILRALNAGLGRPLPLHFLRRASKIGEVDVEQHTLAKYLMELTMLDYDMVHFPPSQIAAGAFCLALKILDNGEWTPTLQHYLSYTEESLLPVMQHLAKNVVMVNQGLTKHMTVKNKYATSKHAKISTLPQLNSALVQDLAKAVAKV
Substitution | normalised enrichment score
A3H | 2.33
L7C | -0.0907
R5H | 0.818
S2T | 3.53
T12I | 3.32
S10V | 2.65
L7G | -0.0237
L7I | 1.77
A3F | 2.93
T12A | 4
F9W | 1.75
R5C | 2.96
S10K | 2.16
D11S | 2.76
L7D | -0.0431
R5M | 2.69
D8G | 0.424
R5S | 0.617
S10C | 3.77
S10Q | 3.02
R5E | 0.385
L7R | 0.109
F9L | 0.826
K6G | 0.71
F9Y | 1.52

Some of these lines once more (study 4):
Strand | RBNS enrichment (R)
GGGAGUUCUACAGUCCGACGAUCCAAUCCCCAGCACUUACUUCUCACUGCAAAGGAGCAAAACAACAAAAACAGCAAGACCAGAAGUGCCCAGCCCCUUGCUGACAGAUUGCUUCGUGUGUGUCCCCACACAAUGGAAUUCUCGGGUGCCAA | 0.35
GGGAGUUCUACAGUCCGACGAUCUUCCGAGCUGGCGGACUGCCCAGGGGCCAUCAGAGGAUGGUGGUGCUGCUGCUGAUCCGGGGACCGCUGUCUUCCCUCCCAUACGCCUUUCAUCCCUCCUUCUAGGGCCUUGGAAUUCUCGGGUGCCAA | 0.468
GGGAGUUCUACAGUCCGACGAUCAAGCAGGACAGUGUGCGUGCACGAGCUCCGAGCCCAGCACAGACAUGCCUGGAACCCCCGCCGCCUGCUGCUCCCUCCUAGGGAACCCAUUUCCGGGGAACGCCGUGACUUGGAAUUCUCGGGUGCCAA | 0.361
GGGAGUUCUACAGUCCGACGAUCACUCUGUCUCCUUGGCUGGAGUGUGGUGGCACAGUCUCAGCUCACUGCAACCUCUGCCUCCCAGUUCAAGCAAUUCUUCUGCCUCAGCCUCCCAAGUAGCUGGGAUUACAUGGAAUUCUCGGGUGCCAA | 0.328
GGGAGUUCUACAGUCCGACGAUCCUGGAGAAGGUGGGCACUGGAUUAGUUAACAGACAACACGUUACUAGCAGUCACUUGAUCUCCGUGGCUUUGGUUUAAAAGACACACUUGUCCACAUAGGUUUAGAGAUAUGGAAUUCUCGGGUGCCAA | 0.232
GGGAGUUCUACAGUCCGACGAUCCUUUCUUGGUUUGGUCACCCCGAUCCCCCGGUCUUCUGCUGUAUCUAGAACAGUGACUAUAAAUGAUGUAUGGGAAUAGUGUUUCCAUAUGAUCUGUUGUCUGGAGUAUAUGGAAUUCUCGGGUGCCAA | 0.607
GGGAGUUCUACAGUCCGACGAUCCCUCAGUGGCCACAUCAUGCCCACUCCCACUCCAUCCUGUCCCCAAGGACUCACAUACAGUGCCUGGAGAAAGCCAAAGACCUUUAUUUCUUCCUGCCUCCCCGUGGGAAUGGAAUUCUCGGGUGCCAA | 0.385
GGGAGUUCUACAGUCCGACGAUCAAGCAUCUGAAGACUGGGUUUUUUUGUUGUUGUUGUUCCCCUUACAGACAAAAUGAAGACUAUCAUGUGCAAUCUUUUACAGUGGGGUUGAUGAUACAUUUGGAAGGAUUUGGAAUUCUCGGGUGCCAA | 0.521
